# Results from different studies.
# Every numbered part comes from another study and shows a few of its results, in no order. Positions count from the first letter of the parent shown.

# Block 1 — method: protein-binding microarray; molecule type: double-stranded DNA, one strand shown; matrix: in vitro; concentration: 250 nM; setting: 60-bp whole probe; added: salmon DNA 0.4 mg/ml; reference: random background probes; reading: higher = stronger binding; shared flanks, not repeated: GCCTAGCAC … GTCTTGATTCGCTTGACGCTGCTG
# Target: Interferon regulatory factor 5, full length, phosphomimetic (IRF5, Homo sapiens, UniProt Q13568-2, residues 1-514, K96S/S451D/S453D/S456D/S462D)
Strand,log fluorescence [z-score]
GACGGTTACGGGACTGGGGACGTGCTA,-0.222
TTAGGTATCCTTTGCCTTTAGTGCTAG,-0.184
GAAGGTTTCCTTATCCTGACGTGCTAG,0.918
GACGGTATGGGTTTCGGGACGTGCTAG,2.39
TTCGGTTTCGGTATCGGTTAGTGCTAG,11
GACGGACTGGGTATCGCGACGTGCTAG,-0.72
GCCGATCTCAGTATCGAGACGTGCTAG,1.87
AAGTTTTTCATTTTTTTTCAGTGCTAG,1.99
TCATATATCTGAACCGCACTGTGCTAG,0.143
GACGAACTGGGGACTGGCGACGTGCTA,-0.523
GACGAACTGAGACTGGACACGTGCTAG,-0.285
TCACCTCCCTAATTCTGACTGTGCTAG,0.093
TTAGATTTCAGGTATCGATTAGTGCTA,4.81
GACGGTATCCACACTGGGGACGTGCTA,-0.302
TTTACTTTCTGAATGCTCCCGTGCTAG,4.99
TTAGGTTACGACTATCGGTTAGTGCTA,6.46
GACGGTTTCGGGTTTCAGGACGTGCTA,7.43
TCATTTATGCACTCTTTAACTGTGCTA,0.72
TTAGGTTTCCTACTACTTTAGTGCTAG,0.655

# Block 2 — method: RNA Bind-n-Seq; molecule type: RNA; matrix: in vitro; concentration: 365 nM; reference: no-protein control; reading: higher = stronger binding
# Target: RNA binding protein fox-1 homolog 2, RRM domain, GST-SBP tag (RBFOX2, Homo sapiens, UniProt O43251-10, residues 100-194)
# Setting: natural RNA segment, single round, ends assumed
# Shared flanks, not repeated: GGGAGUUCUACAGUCCGACGAUC … UGGAAUUCUCGGGUGCCAA
# Construct (chain): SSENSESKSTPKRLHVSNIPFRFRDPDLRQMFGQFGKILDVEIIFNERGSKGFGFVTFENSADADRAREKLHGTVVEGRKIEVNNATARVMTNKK
Strand,RBNS enrichment (R)
GCCCCAUGUGUCCUGGUGAGAAAAUAUAUGCCUGGCACAGCUUUUGUAUAGAAAAUUCUUGAGAAGUAACUGUCCGCUAGAAGUCUGUCCAAAUUUAAAAUGUGUGCCAU,0.361
AGGACCACCCUCAGGAUGGUGCAGAACCCAGAAUUGUGAUUGCAGCAUGUACUGUCCUGUAGGAAAGAAAAUGUGGCUCUAGCUAUUGACCCAUACAGCUGUUGGAAUCU,2.31
UGGCCAGGGGGUGUGAUAACAAAUUGUCCUCAAGUAUCCCAUGUAAUUUUUAUUUAAACCCUUGCACUUCUCAGUGCCUGGCAGCUGCAAGGGUCCCAGCUGCCCCGAGG,0.924
AACACACAGAAUAAAUGGCUCUUUCUCACCUUAUGUCAUGAAUGUUUUGGACAUCAAGCAUCCUAAUGGUACCUCCUUUGUACAAUGCCAAAAUGAGCCUCGGUGUCAGA,1.51
UGGUCUCCUACAGACACAGUGAUCAAGCUGGAUGACUCCUGCUCUUUGGUGCUUUCAACUCAUUGGGAAGAGCUGCAGAUAUUACCAAAAUAGGCUGGCUACAUGAACAC,0.34
CCCCUGCAGCGGCUUUCAGUAUUUUGUACUUGUAGGCACCUAAUAAAUUUAUUAUUUGCUAUACUGACUGAUUGGAUUAGCUUCUGUUACUGCAAAGGGAAGAGCAUCUA,0.397
CAGUAGUGAGGCCUGAGGACCCAUCUGAUGCCCAGGCUCUUCCAGCCACUGUCUAGACCUCCUCCAUCAGAUGCCUAGGCCUCCUCCAUCAGAUACCUGGGCCUCCUCCA,0.209
UGGAAAUUCCUUGCCCCACAGUUGUGUUCAUGCUGAAUCCACCUCGGAGCAUGGUGUUUUCAUUCCCCCUUCCUAGUGAACCACAGGUUUUAGCAUUGUCUUGUUCUGUC,0.35

# Block 3 — target: CCNF, cyclin fold, Cln2 fusion (human); method: yeast growth competition, sequencing; matrix: yeast; setting: strong parent motif; reference: not given; reading: higher = stronger binding
# Parent: E2F3 docking peptide (human); PPAKRRLELGESG
Variant,normalised enrichment score
R5K,3.67
L7A,0.822
G10A,6.79
R5A,0.65
S12A,7.25
G13A,6.58
R5A L7A,0.172
L9A,0.997
L9F,7.62

# Block 4 — method: protein binding microarray; molecule type: double-stranded DNA, one strand shown; matrix: in vitro; concentration: not given; reference: not given; reading: higher = stronger binding
# Target: Histone acetyltransferase KAT6A, both winged helices, GST fusion (KAT6A, Homo sapiens, UniProt Q92794, residues 1-181)
# Setting: 8-mer, flanks averaged, mean of 2 arrays, mostly near background
# Target sequence (chain): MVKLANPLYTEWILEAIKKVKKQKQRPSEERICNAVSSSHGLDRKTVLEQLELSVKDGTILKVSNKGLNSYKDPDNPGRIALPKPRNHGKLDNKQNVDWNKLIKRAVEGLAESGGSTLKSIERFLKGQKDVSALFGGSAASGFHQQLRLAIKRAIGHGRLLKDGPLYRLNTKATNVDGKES
Strand,E-score
ACATCACC,0.0968
CACGTCAG,-0.151
CGATATTA,-0.00327
AAAGTAGA,-0.157
ATAGAACA,-0.194
ACTAAGGC,-0.0666
GTCCGGAA,0.106
GTCACCGA,-0.0749
AGGCTTTA,-0.161
GATAGAAC,-0.122
CGGGAGTC,0.157
ACGGCAGT,0.196
AAGACTAG,-0.0512
AAAGCCAG,-0.17
TATTGCAA,-0.000155
GTAAATAC,0.0574
CAACGGTA,0.121
ATACTCAA,-0.0693
ACTCGTTA,0.000215
AGTTCGCA,-0.00908
ACCGAGAT,0.00217
ACGAGCAA,-0.057
ACGAGAAA,-0.0451
AAACACAA,-0.0933
ATTCAACG,0.133

# Single results of other studies
Substance,target,assay,system,setting,scale,endpoint,result
"PhoQ, residues 284 288 289 292 302 303 NSMLDC","PhoP, residues 12 14 15 18 19 SYFRT (Escherichia coli, UniProt P23836)","Sort-seq, item: YFP reporter",E. coli,"PhoQ-PhoP variant library, added: 10 µM Mg2+","reference: high Mg2+ state, higher = stronger signaling",fold induction,4.95
